Assay results gathered from unrelated publications.
Protocols differ between the studies behind these lines. Numbers after ± are the reported error.
Organism: Plasmodium falciparum

Structure (SMILES)	test	test system	conditions	EC50
O=C(/C=C/c1cccc(O)c1)c1ccc(Cl)cc1	parasite growth	3D7	72 h, blood stage	> 38700 nM
CCn1cc(-c2nc(C)no2)c(=O)c2cc(F)c(N3CCC(C)CC3)cc21	male gamete exflagellation, dual gamete formation	NF54	–	560 nM
Cc1cc(Nc2ccccc2)n2ncnc2n1	parasite growth, [3H]hypoxanthine uptake	3D7	–	> 100000 nM
COc1ccc(Br)cc1CN(C)C(c1ccccc1)c1nnnn1-c1ccccc1C (single isomer, unassigned; (+))	parasite growth, SYBR Green	3D7	72 h	1900 nM
COc1ccc(NC(=O)NC[C@H]2O[C@H](n3cc(C)c(=O)[nH]c3=O)C[C@@H]2O)cc1	parasite growth, SYBR Green	3D7	48 h, blood stage	~2000 nM
O=C(NC1CCCC1)[C@@H]1CCCCOc2cccc(c2)C[C@H](N2CCCC2=O)C(=O)N[C@@H](CCN2CCOCC2)C(=O)N1	parasite growth	fresh clinical isolates, Uganda	geometric mean, ex vivo	18 nM
O=C(/C=C/c1ccc(CN2CCCCC2)c(O)c1)c1ccc(Br)cc1	parasite growth	3D7	72 h, blood stage	150 nM
COc1ccc(C(F)(F)F)cc1CN(C)C(c1cccnc1)c1nnnn1-c1ccccc1C (single isomer, unassigned; (-))	parasite growth, SYBR Green	3D7	72 h	1200 nM
O=C(/C=C/c1ccc(CN2CCCCC2)c(O)c1)c1ccc(F)cc1	parasite growth	3D7	72 h, blood stage	80 nM
Cc1cn([C@@H]2C[C@H](O)[C@@H](CNC(=O)Nc3ccc(C(C)(C)C)cc3)O2)c(=O)[nH]c1=O	parasite growth, SYBR Green	3D7	48 h, blood stage	~2000 nM
Cc1cc(Nc2ccc(S(F)(F)(F)(F)F)cc2)n2nc(C(C)(F)F)nc2n1	liver-stage schizont size	human hepatocytes, NF54	10% FCS	5.7 ng/mL
Cc1ncccc1C(c1nnnn1C1CC1)N(C1CC1)C1(c2cccc(C(F)(F)F)c2)CC1 (stereo not drawn)	parasite growth, SYBR Green	Dd2	72 h	21000 nM
CC1CCN(Cc2cc(/C=C/C(=O)c3ccc(Cl)cc3)ccc2O)CC1	parasite growth	3D7	72 h, blood stage	17000 nM
COC(=O)c1[nH]cc(-c2c[nH]c3ccc(Cl)cc23)c1-c1c[nH]c2ccc(Cl)cc12	parasite growth, SYBR Green	3D7	72 h, blood stage	> 10000 nM
O=C(/C=C/c1cccc(O)c1)c1ccc(F)cc1	parasite growth	3D7	72 h, blood stage	26100 nM
CC(C)C[C@@H]1NC(=O)[C@@H](Cc2ccccc2)NC(=O)[C@H](CCCCCC(=O)C2CO2)NC(=O)[C@@H]2CCCCN2C1=O (stereo partly drawn)	parasite growth, SYBR Green I	3D7, drug-sensitive	72 h	130 ± 40 nM
Cc1ccccc1-n1nnnc1C(C1CC1)N(Cc1cccc(C(F)(F)F)c1)C1CC1 (stereo not drawn)	parasite growth, SYBR Green	Dd2	72 h	4200 nM
COc1cccc(OC)c1C=CC(=O)C=Cc1c(OC)cccc1OC	parasite growth	–	–	21000 to 100000 nM

Repeated from above:
Structure (SMILES)	test	test system	conditions	EC50
CCn1cc(-c2nc(C)no2)c(=O)c2cc(F)c(N3CCC(C)CC3)cc21	male gamete exflagellation, dual gamete formation	NF54	–	560 nM
COc1ccc(C(F)(F)F)cc1CN(C)C(c1cccnc1)c1nnnn1-c1ccccc1C (single isomer, unassigned; (-))	parasite growth, SYBR Green	3D7	72 h	1200 nM
